Results of several laboratories.
Each line is one published result; not all experiments were run side by side.

SMILES	test	test system	conditions	endpoint	result
CCOc1c([C@H](C)n2nc(C)c3c(N)ncnc32)cc(Cl)c(F)c1[C@@H]1CNC(=O)C1	refers to: QTcF ≤450 ms	previously treated B-cell malignancy	oral, 45 mg once daily, overall population	patients	100%
Cc1cc(-c2nnc(N)nc2-c2ccc(F)cc2)cc(Cl)n1	refers to: Rash	IO-naive colorectal cancer patients	oral, dose not given, treatment-related, grade ≥3	patients with immune-mediated AE	0%
COc1cc(Nc2ncc3c(n2)-c2ccc(Cl)cc2C(c2c(F)cccc2OC)=NC3)ccc1C(=O)O	refers to: Hypertension, all grades	cancer patients, phase 1/2	oral, dose not given, with: pembrolizumab	patients with adverse event	13%
Cc1cc(NC2CCN(C(=O)OC3CCN(C(=O)/C=C/CN(C)C)C3)CC2)n2ncc(C(C)C)c2n1 (centres unmarked)	Phase I dose escalation CTCAE v4.0, refers to: abdominal pain	patients with advanced solid tumours	dose not given, TIW dosing any grade	patients with adverse event	36%
CNC(=O)c1ccc(-c2cnc3ncc(Cc4ccc5ncccc5c4)n3n2)cc1F	refers to: Nausea	cancer patients	oral, 600 mg twice daily, all expansion cohorts, grade 3-4	patients with adverse event	5%
COc1ccc([C@@H](O)c2cc(-c3ncnc4cc(N5CCOCC5)ccc34)c(F)cc2Cl)nn1	–	locally advanced rectal cancer patients	100 mg, drug-related adverse events, with: capecitabine and radiotherapy	patients with investigation abnormalities	50%
O=C(Nc1nc2cccc(-c3ccc(CN4CCS(=O)(=O)CC4)cc3)n2n1)C1CC1	refers to: anaemia	rheumatoid arthritis patients	oral, 300 mg once daily, 4 weeks, any relatedness	patients with adverse event	0%
C[C@@H](Nc1cc(F)cc(F)c1)c1cc(C(=O)N(C)C)cc2c(=O)cc(N3CCOCC3)oc12	refers to: Hypotension	advanced solid tumour patients	oral, dose not given, dose finding	patients discontinuing for AE	0%

Excerpt of the above:
SMILES	test	test system	conditions	endpoint	result
COc1cc(Nc2ncc3c(n2)-c2ccc(Cl)cc2C(c2c(F)cccc2OC)=NC3)ccc1C(=O)O	refers to: Hypertension, all grades	cancer patients, phase 1/2	oral, dose not given, with: pembrolizumab	patients with adverse event	13%
